Published values of several laboratories.
± gives the spread as reported.
Histone acetyltransferase RTT109 with Vps75: Histone acetyltransferase RTT109, with Vps75 (Saccharomyces cerevisiae, UniProt Q07794)
UCHL1: Ubiquitin carboxyl-terminal hydrolase isozyme L1 (UCHL1, Homo sapiens, UniProt P09936)
BRD4 BD2: Bromodomain-containing protein 4, BD2 (BRD4, Homo sapiens, UniProt O60885)
BRD4 BD1: Bromodomain-containing protein 4, BD1 (BRD4, Homo sapiens, UniProt O60885)
serine/threonine phosphatase Stp1: serine/threonine phosphatase Stp1 (Staphylococcus aureus, UniProt A0A0H2XF73)
CYP2C8: Cytochrome P450 2C8 (CYP2C8, Homo sapiens, UniProt P10632)

`c1ccc(Nc2nc(-c3ccccc3)no2)cc1` has an IC50 of over 125 µM (Histone acetyltransferase RTT109 with Vps75; enzyme activity, inhibitor, HTS, CPM-based, dose response).
`N#CC(=Cc1ccncc1)C(=O)Nc1cccc(Cl)c1` gave an IC50 of over 200 µM (UCHL1; inhibitor, ubiquitin-rhodamine cleavage; 2 h preincubation).
For `CN(C)C(=O)c1cc2cnc(Nc3ccc(-c4cccc5c(=O)cc(N6CCOCC6)oc45)cn3)nc2n1C1CCCC1`, the IC50 was over 10 µM (BRD4 BD2; inhibitor).
`COc1cc2nccc(Oc3ccc(NC(=O)c4cc5c(n(-c6ccccc6)c4=O)CCCC5=O)nc3)c2cc1OC` has an IC50 of 0.0289 µM (Platelet-derived growth factor receptor alpha (PDGFRA, Homo sapiens, UniProt P16234); cell viability, CellTiter-Glo; Ba/F3 expressing recombinant kinase; 48 h).
The IC50 of `CN(C)C(=O)c1cc2cnc(Nc3ccc4c(=O)cc(N5CCNCC5)oc4c3)nc2n1C1CCCC1` is reported as 0.021 µM (BRD4 BD1; inhibitor).
The IC50 of `COC(=O)c1cccc(-c2nc(-c3c(C)ncc4c3CCNC4)no2)c1` is reported as 4.66 µM (Catenin beta-1, with BCL9 HD2 (CTNNB1, Homo sapiens, UniProt P35222); BCL9 binding, inhibitor, AlphaScreen).
For `CCCSc1nsc(NC(=O)c2cnc3ccccc3n2)n1`, the IC50 was over 125 µM (Histone acetyltransferase RTT109 with Vps75; enzyme activity, inhibitor, HTS, CPM-based, dose response).
`Cc1cnc(-c2ccc(-c3ccc(NC(=O)Nc4c(F)cc(F)cc4F)cc3F)c3c2C(=O)NC3)[nH]1` gave an IC50 of 0.0187 µM (Hepatocyte growth factor receptor (MET, Homo sapiens, UniProt P08581); enzyme activity, inhibitor, mobility shift; with: ATP 1 mM).
The IC50 of `N=C(SC1CC(=O)N(c2ccc(Br)cc2)C1=O)N1N=C(c2ccccc2)CC1c1ccccc1` (stereo not drawn) is reported as over 125 µM (Histone acetyltransferase RTT109 with Vps75; enzyme activity, inhibitor, HTS, CPM-based, dose response).
`COc1cc2c(cc1O)CC[n+]1cc3c(OC)c(OC)ccc3cc1-2` has an IC50 of over 296 µM (serine/threonine phosphatase Stp1; phosphatase activity, inhibitor).
With `O=S1(=O)C=C(SCCN2CCOCC2)c2ccccc21` the IC50 was over 125 µM (Histone acetyltransferase RTT109 with Vps75; enzyme activity, inhibitor, HTS, CPM-based, dose response).
With `Cc1ccc2[nH]nc(-c3nnc(Nc4ccc([N+](=O)[O-])cc4)s3)c2c1` the IC50 was 7.73 ± 1.62 µM (thymidine phosphorylase; enzyme activity, inhibitor, spectrophotometric; pH 7.5, 25 °C).
`CC[C@@H]1[C@H](F)C(=O)N[C@@H]1COc1nccc2cc(C(N)=O)c(OC)cc12` gave an IC50 of over 5 µM (Focal adhesion kinase 1 (PTK2, Homo sapiens, UniProt Q05397); ATP-site binding, ActivX KiNativ profiling; THP-1 cell lysate; Lys1 FAK probe site).
`O=C(Nc1ccccc1Cl)N1CCCN(c2nc(-c3ccccc3)ns2)CC1` gave an IC50 of over 125 µM (Histone acetyltransferase RTT109 with Vps75; enzyme activity, inhibitor, HTS, CPM-based, dose response).
`C[C@@H]1O[C@H](CNS(=O)(=O)c2ccc(C#CC3CC3)s2)[C@@H](O)[C@H](O)[C@@H]1O` has an IC50 of 0.28 ± 0.08 µM (fucose-binding lectin LecB (Pseudomonas aeruginosa, UniProt A0A0H2ZE85)).
With `NCCCCNC(=O)OCC1c2ccccc2-c2ccccc21` the IC50 was over 150 µM (Islet amyloid polypeptide (IAPP, Homo sapiens, UniProt P10997); ThT displacement, ThT fluorescence; pH 7.4, preformed target-ThT complex, with: 5 µM ThT).
`O=C1c2ccccc2C(=O)c2c(NCCc3ccc(O)cc3)ccc(NCCc3ccc(O)cc3)c21` has an EC50 of 3.96 µM (Toxoplasma gondii; parasite growth; HFF, bradyzoite, glutamine-induced).
`COc1cc(C=C(C#N)C(=O)Nc2c(C)cc(C)cc2C)cc(OC)c1` gave an IC50 of over 200 µM (UCHL1; inhibitor, ubiquitin-rhodamine cleavage; 2 h preincubation).
`Cc1c(N2CCOCC2)oc2c(-c3ccc(Nc4ncc5cc(C(=O)N(C)C)n(C6CCCC6)c5n4)cc3F)cccc2c1=O` gave an IC50 of over 10 µM (BRD4 BD2; inhibitor).
With `Nc1ccn([C@@H]2O[C@H](COP(=O)(O)OP(=O)(O)O)[C@@H](O)[C@H]2O)c(=O)n1` the Kd was 4.1 ± 0.2 µM (Ribonuclease pancreatic (RNASE1, Bos taurus, UniProt P61823); binding, native mass spectrometry; solution; single-point method, with: protein 0 to 0.2 µM).
`CN1CCN(c2ccc(Nc3ncc4cc(C#N)c(=O)n(C5CCCC5)c4n3)cc2)CC1` gave an IC50 of 2.79 µM (Serine/threonine-protein kinase PLK1 (PLK1, Homo sapiens, UniProt P53350)).
`O=C(Nc1cccnn1)N1CCC(=Cc2cccc(Oc3ccc(C(F)(F)F)cn3)c2)CC1` gave an IC50 of 0.0015 µM (Fatty-acid amide hydrolase 1 (Faah, Rattus norvegicus, UniProt P97612); enzyme activity, inhibitor; rat brain membranes; 15 min preincubation).
The IC50 of `O=C1CCC(N2C(=O)c3cccc(NCCCCCCNC(=O)c4ccc(Oc5ccc(Cl)cc5NS(=O)(=O)c5ccc(Cl)c(C(F)(F)F)c5)cc4)c3C2=O)C(=O)N1` (stereo not drawn) is reported as 0.0139 µM (Protein cereblon, with DDB1 (CRBN, Homo sapiens, UniProt Q96SW2); binding, HTRF).
For `Cc1ccc(OCC(=O)Nc2ccc3c(c2)C(=O)NC3=O)cc1`, the IC50 was 50.1 µM (Glycogen synthase kinase-3 beta, with Nav1.6 (GSK3B, Homo sapiens, UniProt P49841); Nav1.6-GSK3β assembly, inhibitor, split-luciferase complementation; HEK293 cells (transfected)).
The EC50 of `CC[C@H](C)[C@H](NC(=O)[C@H](Cc1ccc(OP(=O)(O)O)cc1)NC(=O)[C@H](CC(N)=O)NC(=O)[C@H](CC(C)C)NC(=O)[C@@H](N)CO)C(=O)N[C@@H](CC(=O)O)C(=O)N[C@@H](CC(C)C)C(=O)N[C@@H](CC(=O)O)C(=O)N[C@@H](CC(C)C)C(=O)N[C@H](C(=O)N[C@@H](CCCCN)C(=O)O)C(C)C` is reported as 0.25 ± 0.05 µM (Tyrosine-protein phosphatase non-receptor type 11 (PTPN11, Homo sapiens, UniProt Q06124, D485R/S502P); enzyme activity, activator; pH 7.0, 2% DMSO, with: DiFMUP 100 µM, phosphopeptide).
The IC50 of `C=C(NC(=O)[C@H](CCCCNC(=S)NCCCCCCCCCCCC)NS(C)(=O)=O)C(=O)N[C@@H](CCCNC(=N)N)C(N)=O` is reported as 0.18 ± 0.03 µM (NAD-dependent protein deacetylase sirtuin-2 (SIRT2, Homo sapiens, UniProt Q8IXJ6); enzyme activity, inhibitor).
With `c1ccc(-c2noc(NCc3cccs3)n2)cc1` the IC50 was over 125 µM (Histone acetyltransferase RTT109 with Vps75; enzyme activity, inhibitor, HTS, CPM-based, dose response).
`CCN(c1ccccc1)S(=O)(=O)c1ccc(Cl)c(C(=O)Nc2ccccc2N2CC(CC)(CC)CC2=O)c1` has an IC50 of over 125 µM (N-myristoyltransferase (Cryptosporidium parvum, UniProt Q5CV46); enzyme activity, inhibitor).
With `N=C(N)c1ccc(OCCCCCOc2ccc(C(=N)N)cc2)cc1` the IC50 was 2.6 ± 0.4 µM (Serine protease 1 (PRSS1, Bos taurus, UniProt P00760); enzyme activity, inhibitor).
For `O=[N+]([O-])c1cccc(S(=O)(=O)Nc2ccc(O)c(Br)c2)c1`, the IC50 was over 125 µM (Histone acetyltransferase RTT109 with Vps75; enzyme activity, inhibitor, HTS, CPM-based, dose response).
`CSc1ccccc1C(=O)NCCn1cc(C(=O)NCc2cccc(C)n2)c(=O)c2cc3c(cc21)OCO3` has an IC50 of over 100 µM (CYP2C8; enzyme activity, inhibitor; human liver microsomes; 20 min, 30 min NADPH preincubation, with: amodiaquine 2 µM).
The EC50 of `O=C(/C=C/c1ccc(O)c(O)c1)OCCc1ccccc1` is reported as 22.3 µM (Toxoplasma gondii; parasite growth; HFF, bradyzoite, alkaline-induced).
`CN(C)C(=O)c1cc2cnc(Nc3cncc(-c4cccc5c(=O)cc(N6CCOCC6)oc45)c3)nc2n1C1CCCC1` gave an IC50 of over 10 µM (BRD4 BD1; inhibitor).
For `O=c1c(O)c(-c2ccc(O)cc2)oc2cc(O)cc(O)c12`, the IC50 was over 349 µM (serine/threonine phosphatase Stp1; enzyme activity, inhibitor; with: pNPP).
The IC50 of `c1nc2nc(Nc3ccc(N4CCOCC4)cc3)nc(NC3CCCCC3)c2[nH]1` is reported as over 100 µM (Receptor-like protein kinase FERONIA (FER, Arabidopsis thaliana, UniProt Q9SCZ4); enzyme activity, inhibitor).
`CCn1c(-c2nc3ccc(C(=O)N4CCCC(N)C4)cc3n2C)cc2ccccc21` (stereo not drawn) gave an IC50 of over 39.8 µM (Substance-P receptor (TACR1, Homo sapiens, UniProt P25103); intracellular calcium, antagonist, luminescence).
With `CC(=O)N1/C(=C\c2nc3cc(C(=O)N4CCOCC4)ccc3s2)C(=O)c2ccccc21` the IC50 was 1.15 µM (RAF proto-oncogene serine/threonine-protein kinase, RBD (RAF1, Homo sapiens, UniProt P04049); HRAS G12V-GppNHp binding, allosteric inhibitor, ELISA; 1 h preincubation, pH 7.4, 30 °C).
`COc1ccc2c(=O)[nH]c3c(nnn3Cc3ccc(C)cc3)c2c1` has an IC50 of 1.29 µM (Protein mono-ADP-ribosyltransferase PARP12 (PARP12, Homo sapiens, UniProt Q9H0J9)).
`CCOc1cc(-c2nncn2C)ccc1Nc1ncc2cc(C)nc(NCC(C)(C)C)c2n1` has an IC50 of 10 to 50 µM (CYP2C8; enzyme activity, inhibitor).
`C=CC(=O)Nc1cccc(Oc2nc(Nc3ccc(N4CCN(C)CC4)cc3)nc3ccoc23)c1` gave an IC50 of 3.97 µM (Tyrosine-protein kinase Lyn (LYN, Homo sapiens, UniProt P07948)).
The IC50 of `Cc1cc([C@@H](C)Nc2ccccc2C(=O)O)c2nc(N3CCC(F)(F)CC3)c(C#N)c(=O)n2c1` is reported as 1.23 µM (Phosphatidylinositol 4,5-bisphosphate 3-kinase catalytic subunit alpha isoform, with p65 alpha (PIK3CA, Homo sapiens, UniProt P42336); enzyme activity, inhibitor, ADP-Glo; with: 10 µM ATP).
For `O=S1(=O)C=C(N2CCN(C3CCCCC3)CC2)c2ccccc21`, the IC50 was over 125 µM (Histone acetyltransferase RTT109 with Vps75; enzyme activity, inhibitor, HTS, CPM-based, dose response).

Excerpt of the above:
With `c1ccc(-c2noc(NCc3cccs3)n2)cc1` the IC50 was over 125 µM (Histone acetyltransferase RTT109 with Vps75; enzyme activity, inhibitor, HTS, CPM-based, dose response).
For `O=S1(=O)C=C(N2CCN(C3CCCCC3)CC2)c2ccccc21`, the IC50 was over 125 µM (Histone acetyltransferase RTT109 with Vps75; enzyme activity, inhibitor, HTS, CPM-based, dose response).
`Cc1c(N2CCOCC2)oc2c(-c3ccc(Nc4ncc5cc(C(=O)N(C)C)n(C6CCCC6)c5n4)cc3F)cccc2c1=O` gave an IC50 of over 10 µM (BRD4 BD2; inhibitor).
`CCn1c(-c2nc3ccc(C(=O)N4CCCC(N)C4)cc3n2C)cc2ccccc21` (stereo not drawn) gave an IC50 of over 39.8 µM (Substance-P receptor (TACR1, Homo sapiens, UniProt P25103); intracellular calcium, antagonist, luminescence).
`COc1cc2c(cc1O)CC[n+]1cc3c(OC)c(OC)ccc3cc1-2` has an IC50 of over 296 µM (serine/threonine phosphatase Stp1; phosphatase activity, inhibitor).
